Measurements pooled from the literature.
Protocols differ between the studies behind these lines. Several values in a cell are separate wells, animals, samples, runs or records. Numbers after ± are the reported error.
Organism: SARS-CoV-2

Substance | test | test system | conditions | EC50
CC[C@H](NC(=O)[C@H](CS(=O)(=O)CC1CC1)N[C@@H](c1ccc(F)cc1)C(F)(F)F)C(=O)C(=O)NC1CC1 | viral replication | 293T-ACE2, USA-WA1/2020 | 24 h | 70 nM
CN(C)c1ccc(N(Cc2cc(Cl)cs2)C(=O)Cc2cncc3ccccc23)cc1 | viral replication | Calu-3, Omicron BA.2 | – | 300 nM
Cc1cc(NC(=O)c2cc3c(=O)n4cccc(C)c4nc3n2C)ccc1Br | viral replication | Vero E6 | – | 109 nM
calpain inhibitor III | viral replication | Huh-7-ACE2, USA-WA1/2020 | – | 86 nM
CC(C)(C)[C@H](NC(=O)C(F)(F)F)C(=O)N1C[C@H]2[C@@H]([C@H]1C(=O)N[C@H](C#N)C[C@@H]1CCNC1=O)C2(C)C | viral replication, qRT-PCR of viral RNA | Vero, Washington | – | 3700 ± 100 nM
CC(C)=CCN1Cc2cc(Cl)cc3[nH]c(=S)n(c23)C[C@@H]1C | viral replication | 293T-ACE2, USA-WA1/2020 | 24 h | 70 nM
(R)-hydroxychloroquine sulfate | viral replication, refers to: viral RNA in supernatant | Vero E6 | 48 h | 3050 nM
COc1ccc(F)c2[nH]c(C(=O)N[C@@H](CC(C)C)C(=O)N[C@@H](C[C@@H]3CCNC3=O)C(=O)c3nc4c(F)cccc4s3)cc12 | viral replication | VeroE6, WK-521 (ancestral Wuhan) | – | 280 ± 20 nM
OCCN1CCN(CCC=C2c3ccccc3Sc3ccc(C(F)(F)F)cc32)CC1 | viral replication, GFP plate reader screen | – | cell-based | 8710 nM
Fc1ccc(-c2ccc(CN3CCN(c4cccc5ccoc45)CC3)[nH]2)cc1 | viral replication | 293T-ACE2, USA-WA1/2020 | 24 h | 130 nM
N#C[C@@]1(n2ccc(N)nc2=O)O[C@H](CO)[C@@H](O)[C@H]1O | viral replication, qRT-PCR of viral RNA | Caco-2, Washington | – | 400 ± 200 nM
O=C(Nc1ccccc1F)c1cc2c(=O)n3ccccc3nc2n1Cc1ccccc1 | viral replication | Vero E6 | – | 13.8 nM
COC(=O)[C@H]1[C@H]2C[C@@H]3c4[nH]c5ccccc5c4CCN3C[C@H]2C[C@@H](OC(=O)c2cc(OC)c(OC)c(OC)c2)[C@@H]1OC | viral replication, high-content imaging screen | BetaCov/Belgium/GHB-03021/2020 | cell-based | > 25100 nM
CC(C)[C@H](NC(=O)c1ccccc1NC(=O)c1ccccn1)C(=O)N[C@H](CO)C(C)C | plaque formation, plaque reduction | Vero E6 | 72 h | 2100 ± 1100 nM
CC(C)(C)[C@H](NC(=O)C(F)(F)F)C(=O)N1C[C@H]2[C@@H]([C@H]1C(=O)N[C@H](C#N)C[C@@H]1CCNC1=O)C2(C)C | viral replication | Huh-7.5.1 | – | 190 nM
CSc1ccc(N(Cc2cc(Cl)cs2)C(=O)Cc2cncc3ccccc23)cc1 | – | Calu-3, B.1.617.2 Delta | – | 6700 nM
NCC[C@H](Oc1ccc(C(F)(F)F)cc1)c1ccccc1 | viral replication, high-content imaging screen | – | cell-based | > 100000 nM
Cc1ccc(-c2cc(C(F)(F)F)n3ncc(C(=O)Nc4sc5c(c4C(N)=O)CCCC5)c3n2)cc1 | plaque formation, plaque reduction | Vero E6 | 72 h | 14300 ± 9600 nM
O=C[C@H](C[C@@H]1CCNC1=O)NC(=O)[C@H](CC1CCCCC1)NC(=O)c1cc2ccccc2[nH]1 | viral replication | Vero E6, 2019-nCoV-WIV04 | 10% human serum | 1100 nM
COc1ccc(C(=O)Nc2ccccc2C(=O)N[C@H](C(=O)Nc2ccccc2)C(C)C)cc1 | plaque formation, plaque reduction | Vero E6 | 72 h | > 50000 nM
CC(C)(C)[C@H](NC(=O)C(F)(F)F)C(=O)N1C[C@H]2[C@@H]([C@H]1C(=O)N[C@@H](C[C@@H]1CCNC1=O)C(=O)c1nc3ccc(F)cc3s1)C2(C)C | viral replication | Vero C1008, JPN/TY/WK-521 (ancestral Wuhan) | – | 40 nM
CC(C)(C)NC(=O)N[C@H](C(=O)N1C[C@H]2[C@@H]([C@H]1C(=O)NC(CC1CCC1)C(=O)C(N)=O)C2(C)C)C(C)(C)C (stereo partly drawn) | viral cytopathic effect | Vero 76, USA-WA1/2020 | 120 h | 1900 nM
Nc1nc2nn[nH]c2c(=O)[nH]1 | viral replication, high-content imaging screen | – | cell-based | > 50100 nM
CC(C)(C)[C@H](NC(=O)C(F)(F)F)C(=O)N1C[C@H]2[C@@H]([C@H]1C(=O)N[C@H](C#N)C[C@@H]1CCNC1=O)C2(C)C | – | Vero C1008, XBB.1 | – | 1220 nM
O=C(O[C@@H]1O[C@@H]2COC(=O)c3cc(O)c(O)c(O)c3-c3c(cc(O)c(O)c3O)C(=O)O[C@H]([C@H]1O)[C@@H]2O)c1cc(O)c(O)c(O)c1 | viral replication | Vero | – | 130 nM
CC(C)/N=c1\cc2n(-c3ccc(Cl)cc3)c3ccccc3nc-2cc1Nc1ccc(Cl)cc1 | viral replication | 293T-ACE2, USA-WA1/2020 | 24 h | ~500 nM

Substance | test | test system | conditions | EC50
Cc1cccn2c(=O)c3cc(C(=O)Nc4ccc(N(C)C)cc4)n(C)c3nc12 | viral replication | Vero E6 | – | 37.6 nM
COc1ccc(C(=O)Nc2ccccc2C(=O)N[C@H](C(=O)NC2CCCCC2)C(C)C)cc1 | plaque formation, plaque reduction | Vero E6 | 72 h | 35700 ± 3800 nM
CC(C)(C)[C@H](NC(=O)C(F)(F)F)C(=O)N1C[C@H]2[C@@H]([C@H]1C(=O)N[C@H](C#N)C[C@@H]1CCNC1=O)C2(C)C | viral replication | Calu-3, Omicron BA.1 | – | 900 nM
N=C(N)Nc1ccc(C(=O)Oc2ccc3cc(C(=N)N)ccc3c2)cc1 | viral replication | HEK293 ACE2/TMPRSS2 | fixed 7:1 molar combination | 460 nM
CCC(CC)COC(=O)[C@H](C)N[P@](=O)(OC[C@H]1O[C@@](C#N)(c2ccc3c(N)ncnn23)[C@H](O)[C@@H]1O)Oc1ccccc1 | viral replication | Vero C1008, prototype | – | 1300 nM
C#C[C@]1(O)CC[C@H]2[C@@H]3CCc4cc(OC5CCCC5)ccc4[C@H]3CC[C@@]21C | viral replication, high-content imaging screen | – | cell-based | > 100000 nM
Cn1cnc(Cn2c(=O)[nH]/c(=N\c3cc4cn(C)nc4cc3Cl)n(Cc3cc(F)c(F)cc3F)c2=O)n1 | – | Vero C1008, XBB.1 | – | 90 nM and 80 nM
N#C[C@@]1(c2ccc3c(N)ncnn23)O[C@H](CO)[C@@H](O)[C@H]1O | viral replication | A549-ACE2-TMPRSS2, WA1 | 24 h | 2200 nM
CNCc1ccc(C)c(NC(=O)c2ccc(Nc3nc(-c4ccccc4)c4ccccc4n3)cc2)c1 | viral replication, high-content imaging screen | – | cell-based | > 100000 nM
COc1ccc(NC2=NC(=O)CC(C(=O)NCc3ccccc3)N2)cc1 (stereo not drawn) | plaque formation, plaque reduction | Vero E6 | 72 h | > 50000 nM
CCN(CCO)CCCC(C)Nc1ccnc2cc(Cl)ccc12 (stereo not drawn) | cytopathic effect | Vero C1008 | – | 5040 nM
C#Cc1cccc(Nc2ncnc3cc(OCCOC)c(OCCOC)cc23)c1 | viral replication | Vero E6, USA-WA1/2020 | – | > 20000 nM
O=c1[nH]cnc2c1nnn2[C@@H]1C(F)=C(CO)[C@@H](O)[C@H]1O | viral replication, spike protein immunostaining | Vero | 48 h | > 100000 nM
COc1ccc(C(=O)COC(=O)C(Cc2ccccc2)N2C(=O)C3C4C=CC(C4)C3C2=O)cc1 (stereo not drawn) | plaque formation, plaque reduction | Vero E6 | 72 h | > 50000 nM
O=C(Cn1nnc2ccccc21)N(Cc1cccc(Cl)c1)c1ccc(-c2cnc[nH]2)cc1 | viral replication | USA-WA1/2020 | – | 300 nM
CC(C)=CCC1=C(O)C(=O)c2ccccc2C1=O | viral replication | Calu-3 | 48 h | 1500 ± 100 nM
CN(C)CCON=C1c2ccccc2CCc2ccccc21 | viral replication, high-content imaging screen | – | cell-based | > 100000 nM
CC1(C)C=Cc2c(cc3occ(-c4ccc(O)cc4)c(=O)c3c2O)O1 | viral replication | Calu-3, mNeonGreen reporter | – | 16300 ± 1100 nM
CC1(C)CCC(c2ccc(Cl)cc2)=C(CN2CCN(c3ccc(C(=O)NS(=O)(=O)c4ccc(N[C@H](CCN5CCOCC5)CSc5ccccc5)c(S(=O)(=O)C(F)(F)F)c4)cc3)CC2)C1 | viral replication, GFP plate reader screen | – | cell-based | > 100000 nM
CCOC(=O)C1=C(CN2CCCN(C(=O)OC(C)(C)C)CC2)NC(=O)NC1c1ccc(C)cc1 (stereo not drawn) | plaque formation, plaque reduction | Vero E6 | 72 h | 15200 ± 2500 nM
CC(C)(C)[C@H](NC(=O)C(F)(F)F)C(=O)N1C[C@H]2[C@@H]([C@H]1C(=S)N[C@@H](C[C@@H]1CCNC1=O)C(=O)c1nc3cc(F)ccc3s1)C2(C)C | viral replication | Vero C1008, JPN/TY/WK-521 (ancestral Wuhan) | – | 57 nM
Cc1ccc(C(=O)Nc2ccc(S(=O)(=O)O)c3cc(S(=O)(=O)O)cc(S(=O)(=O)O)c23)cc1NC(=O)c1cccc(NC(=O)Nc2cccc(C(=O)Nc3cc(C(=O)Nc4ccc(S(=O)(=O)O)c5cc(S(=O)(=O)O)cc(S(=O)(=O)O)c45)ccc3C)c2)c1 | virus-induced cytopathic effect | Vero E6, USA-WA1/2020 | 72 h | > 20000 nM
CC(C)(C)c1ccc(N(Cc2cc(Cl)cs2)C(=O)Cc2cncc3ccccc23)cc1 | – | Calu-3, B.1.617.2 Delta | – | 8500 nM
COc1cc2c(cc1N1C[C@@H](C)N[C@@H](C)C1)N(C(=O)c1ccc(-c3ccc(-c4noc(C)n4)cc3C)cc1)CC2 | viral replication | Huh-7-ACE2, USA-WA1/2020 | 24 h | 640 nM
O=c1nc[nH]c2c1ncn2[C@H]1CC[C@@H](CO)O1 | infectious virus yield | Vero C1008, VOC-202012/01 | 48 h, 50% decrease endpoint | ~3100 nM

For quick reference, copied from above:
Substance | test | test system | conditions | EC50
CC(C)/N=c1\cc2n(-c3ccc(Cl)cc3)c3ccccc3nc-2cc1Nc1ccc(Cl)cc1 | viral replication | 293T-ACE2, USA-WA1/2020 | 24 h | ~500 nM
Cc1cccn2c(=O)c3cc(C(=O)Nc4ccc(N(C)C)cc4)n(C)c3nc12 | viral replication | Vero E6 | – | 37.6 nM
COc1ccc(C(=O)Nc2ccccc2C(=O)N[C@H](C(=O)NC2CCCCC2)C(C)C)cc1 | plaque formation, plaque reduction | Vero E6 | 72 h | 35700 ± 3800 nM
CC(C)(C)[C@H](NC(=O)C(F)(F)F)C(=O)N1C[C@H]2[C@@H]([C@H]1C(=O)N[C@H](C#N)C[C@@H]1CCNC1=O)C2(C)C | viral replication | Calu-3, Omicron BA.1 | – | 900 nM
N=C(N)Nc1ccc(C(=O)Oc2ccc3cc(C(=N)N)ccc3c2)cc1 | viral replication | HEK293 ACE2/TMPRSS2 | fixed 7:1 molar combination | 460 nM
CCC(CC)COC(=O)[C@H](C)N[P@](=O)(OC[C@H]1O[C@@](C#N)(c2ccc3c(N)ncnn23)[C@H](O)[C@@H]1O)Oc1ccccc1 | viral replication | Vero C1008, prototype | – | 1300 nM
C#C[C@]1(O)CC[C@H]2[C@@H]3CCc4cc(OC5CCCC5)ccc4[C@H]3CC[C@@]21C | viral replication, high-content imaging screen | – | cell-based | > 100000 nM
